{"data": "Results gathered from unrelated publications", "MAPK3": "Mitogen-activated protein kinase 3 (MAPK3, Homo sapiens, UniProt P27361)", "Nuclear receptor subfamily 2 group C member 2 ligand-binding domain": "Nuclear receptor subfamily 2 group C member 2, ligand-binding domain (Homo sapiens, UniProt P49116)", "UGT1A4": "UDP-glucuronosyltransferase 1A4 (UGT1A4, Homo sapiens, UniProt P22310)", "DDR1": "Epithelial discoidin domain-containing receptor 1 (DDR1, Homo sapiens, UniProt Q08345)", "CAMK2G": "Calcium/calmodulin-dependent protein kinase type II subunit gamma (CAMK2G, Homo sapiens, UniProt Q13555)", "note": "± marks the error that the study gave.", "sequence of UniProt P49116 (whole entry, looked up)": "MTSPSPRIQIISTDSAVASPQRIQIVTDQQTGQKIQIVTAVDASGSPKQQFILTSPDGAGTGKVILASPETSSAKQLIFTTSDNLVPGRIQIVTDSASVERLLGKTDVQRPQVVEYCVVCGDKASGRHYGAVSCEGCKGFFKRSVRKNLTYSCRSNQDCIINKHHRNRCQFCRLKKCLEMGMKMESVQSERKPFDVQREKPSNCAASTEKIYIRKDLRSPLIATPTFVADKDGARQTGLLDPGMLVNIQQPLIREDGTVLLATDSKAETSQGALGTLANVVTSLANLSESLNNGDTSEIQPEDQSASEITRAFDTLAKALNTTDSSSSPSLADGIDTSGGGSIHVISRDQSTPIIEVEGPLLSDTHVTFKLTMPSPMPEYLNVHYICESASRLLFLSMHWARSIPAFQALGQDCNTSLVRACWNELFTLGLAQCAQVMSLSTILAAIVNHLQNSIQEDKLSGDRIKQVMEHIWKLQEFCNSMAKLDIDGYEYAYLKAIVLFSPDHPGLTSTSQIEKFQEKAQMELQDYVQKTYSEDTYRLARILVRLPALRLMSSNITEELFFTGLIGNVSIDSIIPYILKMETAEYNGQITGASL", "sequence of UniProt P27361 (whole entry, looked up)": "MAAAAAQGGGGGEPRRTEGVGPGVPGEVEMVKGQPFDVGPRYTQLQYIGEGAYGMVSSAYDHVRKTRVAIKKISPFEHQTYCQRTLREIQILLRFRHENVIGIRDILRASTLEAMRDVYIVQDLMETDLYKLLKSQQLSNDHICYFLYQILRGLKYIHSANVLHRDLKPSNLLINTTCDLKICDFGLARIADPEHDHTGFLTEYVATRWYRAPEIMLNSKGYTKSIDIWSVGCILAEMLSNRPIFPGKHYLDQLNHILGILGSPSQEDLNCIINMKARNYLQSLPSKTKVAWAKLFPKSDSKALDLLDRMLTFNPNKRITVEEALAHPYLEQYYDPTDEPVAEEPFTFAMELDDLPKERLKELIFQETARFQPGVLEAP", "sequence of UniProt Q13555 (whole entry, looked up)": "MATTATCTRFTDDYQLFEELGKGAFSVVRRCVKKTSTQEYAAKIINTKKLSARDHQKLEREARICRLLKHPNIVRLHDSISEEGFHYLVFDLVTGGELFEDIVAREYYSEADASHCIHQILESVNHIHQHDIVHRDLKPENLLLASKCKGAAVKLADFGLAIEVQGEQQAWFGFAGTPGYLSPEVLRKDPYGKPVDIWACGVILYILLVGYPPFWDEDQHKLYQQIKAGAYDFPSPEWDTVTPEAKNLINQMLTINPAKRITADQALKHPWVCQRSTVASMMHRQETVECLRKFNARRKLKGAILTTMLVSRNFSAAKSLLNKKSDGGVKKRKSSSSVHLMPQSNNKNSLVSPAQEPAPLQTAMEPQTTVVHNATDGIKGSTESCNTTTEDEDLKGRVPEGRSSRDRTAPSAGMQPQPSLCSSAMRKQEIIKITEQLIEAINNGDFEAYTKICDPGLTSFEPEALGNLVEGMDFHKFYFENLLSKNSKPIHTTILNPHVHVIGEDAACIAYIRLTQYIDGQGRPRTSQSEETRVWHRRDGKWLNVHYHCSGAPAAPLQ", "sequence of UniProt P22310 (whole entry, looked up)": "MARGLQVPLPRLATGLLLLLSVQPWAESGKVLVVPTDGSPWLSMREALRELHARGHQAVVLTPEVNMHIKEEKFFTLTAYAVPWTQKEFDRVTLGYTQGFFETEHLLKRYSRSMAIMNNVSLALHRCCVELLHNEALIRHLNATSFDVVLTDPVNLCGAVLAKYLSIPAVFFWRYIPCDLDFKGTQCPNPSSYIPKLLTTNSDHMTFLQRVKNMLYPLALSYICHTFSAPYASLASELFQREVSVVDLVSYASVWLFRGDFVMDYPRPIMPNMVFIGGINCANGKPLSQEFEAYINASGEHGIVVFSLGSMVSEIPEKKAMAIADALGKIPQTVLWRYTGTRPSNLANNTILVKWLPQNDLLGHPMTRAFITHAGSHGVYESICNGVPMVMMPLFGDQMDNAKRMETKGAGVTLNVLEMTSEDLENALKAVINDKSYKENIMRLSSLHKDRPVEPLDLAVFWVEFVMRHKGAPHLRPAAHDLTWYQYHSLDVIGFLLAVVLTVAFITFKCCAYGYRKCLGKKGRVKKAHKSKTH", "sequence of UniProt Q08345 (whole entry, looked up)": "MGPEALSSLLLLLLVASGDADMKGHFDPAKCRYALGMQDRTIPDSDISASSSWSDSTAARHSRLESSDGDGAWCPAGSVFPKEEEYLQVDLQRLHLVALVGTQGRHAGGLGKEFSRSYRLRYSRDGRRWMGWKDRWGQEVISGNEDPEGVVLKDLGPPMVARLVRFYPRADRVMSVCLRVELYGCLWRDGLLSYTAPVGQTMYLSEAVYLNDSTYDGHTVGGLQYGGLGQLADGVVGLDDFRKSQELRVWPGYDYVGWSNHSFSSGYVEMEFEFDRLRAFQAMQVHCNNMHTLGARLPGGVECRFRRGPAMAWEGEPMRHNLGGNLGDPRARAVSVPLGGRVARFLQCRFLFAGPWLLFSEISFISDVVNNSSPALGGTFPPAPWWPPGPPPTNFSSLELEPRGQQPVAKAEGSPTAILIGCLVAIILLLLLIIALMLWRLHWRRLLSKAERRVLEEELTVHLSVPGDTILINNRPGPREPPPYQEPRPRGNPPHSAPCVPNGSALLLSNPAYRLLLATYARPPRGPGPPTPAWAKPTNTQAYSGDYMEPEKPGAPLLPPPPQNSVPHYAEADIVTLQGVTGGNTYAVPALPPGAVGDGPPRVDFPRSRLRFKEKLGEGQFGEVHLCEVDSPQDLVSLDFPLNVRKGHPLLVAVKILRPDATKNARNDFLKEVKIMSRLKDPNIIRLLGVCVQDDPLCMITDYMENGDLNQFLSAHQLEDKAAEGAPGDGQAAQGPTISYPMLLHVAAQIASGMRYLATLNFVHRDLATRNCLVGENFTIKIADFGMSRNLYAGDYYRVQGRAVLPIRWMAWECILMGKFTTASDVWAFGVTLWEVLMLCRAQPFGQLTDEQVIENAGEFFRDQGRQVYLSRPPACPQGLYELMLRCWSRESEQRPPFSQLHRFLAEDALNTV", "sequence of UniProt O94921 (whole entry, looked up)": "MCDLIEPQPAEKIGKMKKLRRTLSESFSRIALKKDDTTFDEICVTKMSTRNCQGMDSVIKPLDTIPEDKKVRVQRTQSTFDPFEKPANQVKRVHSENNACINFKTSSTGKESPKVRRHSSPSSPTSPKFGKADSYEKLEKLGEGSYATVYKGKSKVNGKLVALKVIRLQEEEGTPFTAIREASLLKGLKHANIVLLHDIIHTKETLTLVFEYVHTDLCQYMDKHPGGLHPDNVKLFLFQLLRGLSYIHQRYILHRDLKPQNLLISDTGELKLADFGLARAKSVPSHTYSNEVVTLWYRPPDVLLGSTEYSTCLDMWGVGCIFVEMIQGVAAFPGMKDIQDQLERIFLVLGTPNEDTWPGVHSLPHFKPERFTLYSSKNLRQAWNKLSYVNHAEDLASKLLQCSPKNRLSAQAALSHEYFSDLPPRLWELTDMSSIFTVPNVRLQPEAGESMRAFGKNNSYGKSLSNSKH", "sequence of UniProt P48067 (whole entry, looked up)": "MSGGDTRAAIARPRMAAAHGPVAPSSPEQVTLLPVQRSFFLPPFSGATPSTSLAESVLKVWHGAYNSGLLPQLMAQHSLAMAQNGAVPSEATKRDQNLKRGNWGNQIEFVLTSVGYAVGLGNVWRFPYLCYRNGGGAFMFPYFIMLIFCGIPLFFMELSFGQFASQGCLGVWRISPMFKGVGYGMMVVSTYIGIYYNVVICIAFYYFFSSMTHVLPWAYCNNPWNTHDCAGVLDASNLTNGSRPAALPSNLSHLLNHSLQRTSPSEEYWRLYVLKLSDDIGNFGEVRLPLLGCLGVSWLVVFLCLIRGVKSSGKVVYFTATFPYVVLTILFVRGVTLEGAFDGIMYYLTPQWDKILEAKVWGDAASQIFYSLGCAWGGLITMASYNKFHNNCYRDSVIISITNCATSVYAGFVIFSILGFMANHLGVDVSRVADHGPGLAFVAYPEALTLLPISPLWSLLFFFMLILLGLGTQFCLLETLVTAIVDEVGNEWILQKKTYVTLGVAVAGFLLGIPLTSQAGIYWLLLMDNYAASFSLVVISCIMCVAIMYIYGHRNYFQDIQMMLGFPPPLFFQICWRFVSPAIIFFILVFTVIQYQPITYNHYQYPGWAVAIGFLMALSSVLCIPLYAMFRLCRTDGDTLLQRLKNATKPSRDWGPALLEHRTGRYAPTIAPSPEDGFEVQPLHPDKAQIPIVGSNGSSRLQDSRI", "sequence of UniProt O43353 (whole entry, looked up)": "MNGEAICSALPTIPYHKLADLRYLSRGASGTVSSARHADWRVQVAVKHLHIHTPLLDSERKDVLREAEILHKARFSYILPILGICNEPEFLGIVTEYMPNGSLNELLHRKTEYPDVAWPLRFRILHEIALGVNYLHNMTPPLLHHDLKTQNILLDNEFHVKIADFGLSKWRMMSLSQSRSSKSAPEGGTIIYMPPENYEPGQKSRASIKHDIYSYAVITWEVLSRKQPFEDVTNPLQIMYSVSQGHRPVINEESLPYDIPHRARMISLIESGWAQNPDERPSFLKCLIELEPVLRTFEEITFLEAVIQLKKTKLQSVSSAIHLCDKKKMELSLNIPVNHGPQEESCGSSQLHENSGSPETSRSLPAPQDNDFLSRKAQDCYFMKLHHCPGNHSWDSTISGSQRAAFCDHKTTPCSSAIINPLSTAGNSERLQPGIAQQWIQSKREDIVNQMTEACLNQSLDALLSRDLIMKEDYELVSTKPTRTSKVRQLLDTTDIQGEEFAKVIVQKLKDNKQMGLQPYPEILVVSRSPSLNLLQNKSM"}
{"SMILES": "COc1ccc2cc3[n+](cc2c1OC)CCc1cc2c(cc1-3)OCO2", "target or system": "P2X purinoceptor 7 (Ailuropoda melanoleuca, UniProt G1M6C4)", "assay": "ATP-evoked current, whole-cell patch clamp", "test system": "HEK293 (transfected)", "setting": "300 µM", "scale": "relative to: no compound", "measurement": "remaining activity", "value": "47.1%"}
{"SMILES": "Oc1cccc(-c2nc(N3CCOCC3)c3oc4ncccc4c3n2)c1", "target or system": "VEGFR", "assay": "enzyme activity", "setting": "10 µM", "measurement": "remaining activity", "value": "92%"}
{"SMILES": "C=CC(=O)N1CCC[C@@H](n2nc(-c3ccc(Oc4ccccc4)cc3)c3c(N)ncnc32)C1", "target or system": "MAPK3", "setting": "1 µM", "measurement": "remaining activity", "value": "13.3%"}
{"SMILES": "CC(C)C(=O)Nc1n[nH]c2cc(-c3cccc(NS(=O)(=O)C4CC4)c3)ccc12", "target or system": "Phosphatidylinositol 4-phosphate 5-kinase type-1 gamma (PIP5K1C, Homo sapiens, UniProt O60331)", "assay": "ADP-Glo", "setting": "123 nM", "scale": "relative to: DMSO", "measurement": "remaining activity", "value": "99.6%"}
{"SMILES": "Clc1ccc(CCC(Cn2ccnc2)Sc2c(Cl)cccc2Cl)cc1 (stereo not drawn)", "target or system": "Nuclear receptor subfamily 2 group C member 2 ligand-binding domain", "assay": "SPR imaging", "measurement": "Kd", "value": "0.0185 nM"}
{"SMILES": "CNc1ncc2c(/C=C/C(=O)N3CCC(OC)CC3)nn(Cc3cccc(C(F)(F)F)c3)c2n1", "target or system": "G protein-coupled receptor kinase 3 (GRK3, Homo sapiens, UniProt P35626)", "assay": "kinase activity, inhibitor", "setting": "1 µM", "scale": "relative to: untreated control", "measurement": "remaining activity", "value": "99%"}
{"SMILES": "O=c1cc(-c2ccc(O)c(-c3c(O)cc(O)c4c(=O)cc(-c5ccc(O)cc5)oc34)c2)oc2cc(O)cc(O)c12", "target or system": "UGT1A4", "assay": "glucuronidation, inhibitor", "test system": "human liver microsomes", "setting": "1 µM, together with: probe substrate 0.5 µM", "scale": "relative to: no inhibitor", "measurement": "remaining activity", "value": "~70%"}
{"SMILES": "CN(C)C(=O)CCc1nc(-c2ccccc2)c(-c2ccccc2)o1", "target or system": "COS-7", "setting": "100 µM, 24 h, 0.1% DMSO, unit not given", "scale": "relative to: control", "measurement": "apoptosis", "value": "0.93 ± 0.14"}
{"SMILES": "CC(C)OCCn1c(=S)[nH]c(=O)c2[nH]ccc21", "target or system": "Myeloperoxidase (MPO, Homo sapiens, UniProt P05164)", "assay": "chlorination activity", "setting": "0.078 µM, 0.1 h, together with: iodide, TMB", "measurement": "remaining activity", "value": "103%"}
{"SMILES": "C=CC(=O)N1CCC([C@@H]2CCNc3c(C(N)=O)c(-c4ccc(Oc5ccccc5)cc4)nn32)CC1", "target or system": "DDR1", "assay": "kinase activity, inhibitor, HotSpot radiometric", "setting": "100 nM, together with: ATP 10 µM", "measurement": "remaining activity", "value": "108 ± 0.8%"}
{"SMILES": "CCCCCCCCCCCCCCNC(=O)/C=C/c1ccc(O)c(O)c1", "target or system": "Alpha-glucosidase MAL12 (MAL12, Saccharomyces cerevisiae S288c, UniProt P53341)", "assay": "enzyme activity", "setting": "10 µM, together with: α-amylase present", "measurement": "remaining activity", "value": "18.5 ± 0.89%"}
{"SMILES": "COc1c(O)cc2c(c1O)C(=O)c1c(cc(C)c(O)c1OC)C2=O", "target or system": "HepaRG co-cultured with HK-2", "assay": "MTT", "setting": "16.67 µM, 24 h", "scale": "relative to: untreated control", "measurement": "cell viability", "value": "97.2 ± 9.92%"}
{"SMILES": "CN1C(C(=O)Nc2ccccn2)=C(O)c2sc(Cl)cc2S1(=O)=O", "target or system": "COS-7", "setting": "100 µM, 24 h, 0.1% DMSO, unit not given", "scale": "relative to: control", "measurement": "apoptosis", "value": "0.67 ± 0.11"}
{"SMILES": "NC(=O)C1CCCc2c1[nH]c1ccc(Cl)cc21 (racemic)", "target or system": "OCI-Ly1", "setting": "0.1 µM, 120 h", "measurement": "viability", "value": "192%"}
{"SMILES": "COc1cc(F)ccc1-c1ncnc(Nc2cccc(C[S@](C)(=N)=O)c2)n1", "target or system": "Tyrosine-protein kinase Blk (Blk, Mus musculus, UniProt P16277)", "assay": "kinase activity", "setting": "10 µM, together with: 10 µM ATP", "measurement": "remaining activity", "value": "52%"}
{"SMILES": "O=C1NC(=O)/C(=C/c2ccc(-c3ccc(F)cc3O)o2)S1", "target or system": "Receptor-interacting serine/threonine-protein kinase 2 (RIPK2, Homo sapiens, UniProt O43353)", "assay": "enzyme activity", "setting": "10 µM", "measurement": "remaining activity", "value": "19%"}
{"SMILES": "NC/C(=C\\F)COc1cccc(Cn2c(=S)[nH]c(=O)c3[nH]cnc32)c1", "target or system": "Peroxidasin homolog (PXDN, Homo sapiens, UniProt Q92626)", "assay": "Amplex UltraRed", "setting": "0.3125 µM, mean of replicates", "scale": "relative to: control", "measurement": "remaining activity", "value": "99.8%"}
{"SMILES": "COc1ccc(F)cc1C(=O)NCc1ccc(-c2nn([C@@H](C)C(F)(F)F)c(N)c2C(N)=O)cc1", "target or system": "MAPK3", "assay": "kinase activity, inhibitor, HotSpot radiometric", "setting": "1000 nM, together with: ATP at Km", "measurement": "remaining activity", "value": "106.8 ± 0.9%"}
{"SMILES": "CNCC(=O)O", "target or system": "Sodium- and chloride-dependent glycine transporter 1 (SLC6A9, Homo sapiens, UniProt P48067)", "assay": "[3H]glycine uptake, inhibitor", "test system": "HEK293F cells", "setting": "3000 µM", "scale": "relative to: cells without inhibitor", "measurement": "remaining activity", "value": "11.4%"}
{"SMILES": "O=C(O)c1ccc(Nc2ncc3c(n2)-c2ccc(Cl)cc2C(c2c(F)cccc2F)=NC3)cc1", "target or system": "PTK5(h)", "assay": "kinase activity", "setting": "1 µM", "measurement": "remaining activity", "value": "90%"}
{"SMILES": "Nc1ccn([C@@H]2O[C@H](CO)[C@@H](O)C2(F)F)c(=O)n1", "target or system": "OCI-Ly1", "setting": "0.5 µM, 120 h", "measurement": "viability", "value": "3.14%"}
{"SMILES": "CCOc1cc(N2CCN(C)CC2)ccc1Nc1nc(N)n(C(=O)NCc2ccccc2S(=O)(=O)C(C)C)n1", "target or system": "Epidermal growth factor receptor (EGFR, Homo sapiens, UniProt P00533, L861Q)", "assay": "enzyme activity", "setting": "10 µM", "scale": "relative to: control", "measurement": "remaining activity", "value": "4.4%"}
{"SMILES": "C[C@@](Cc1ccc(O)c(O)c1)(NN)C(=O)O", "target or system": "Nuclear receptor subfamily 2 group C member 2 ligand-binding domain", "assay": "SPR imaging", "measurement": "Kd", "value": "15.4 nM"}
{"SMILES": "C[C@@H]1CC[C@@]2(OC1)O[C@H]1C[C@H]3[C@@H]4CC[C@H]5C[C@@H](O)CC[C@]5(C)[C@H]4CC(=O)[C@]3(C)[C@H]1[C@@H]2C", "target or system": "UGT1A4", "assay": "glucuronidation, inhibitor", "test system": "human liver microsomes", "setting": "100 µM, together with: probe substrate 50 µM", "scale": "relative to: no inhibitor", "measurement": "remaining activity", "value": "~10%"}
{"SMILES": "COc1cc(N2CCN(C)CC2)ccc1Nc1nc(N)n(C(=O)NCc2ccccc2S(=O)(=O)C(C)C)n1", "target or system": "Epidermal growth factor receptor (EGFR, Homo sapiens, UniProt P00533, A750P/del747-749)", "assay": "enzyme activity", "setting": "10 µM", "scale": "relative to: control", "measurement": "remaining activity", "value": "6%"}
{"SMILES": "Cc1cc(NC(=O)c2cccc(NC(=O)/C=C/CN(C)C)c2)ccc1Nc1nccc(-c2cccnc2)n1", "target or system": "Mitogen-activated protein kinase 8, phosphorylated (MAPK8, Homo sapiens, UniProt P45983)", "assay": "enzyme activity after dialysis, inhibitor", "setting": "10 µM, 4 days, unit not given", "scale": "relative to: no inhibitor", "measurement": "remaining activity", "value": 0.0679}
{"SMILES": "O=C(NC1CCC1)c1ccc2nc(-c3cccc(NS(=O)(=O)NCCN4CCCCC4)c3)cn2c1", "target or system": "MAP kinase-activated protein kinase 2 (MAPKAPK2, Homo sapiens, UniProt P49137)", "assay": "enzyme activity", "setting": "10 µM", "measurement": "remaining activity", "value": "98%"}
{"SMILES": "COc1cc(N2CCN(C)CC2)ccc1Nc1nc(N)n(C(=S)NCc2c(Cl)cccc2Cl)n1", "target or system": "Cyclin-dependent kinase 14 (CDK14, Homo sapiens, UniProt O94921)", "assay": "enzyme activity", "setting": "10 µM", "scale": "relative to: control", "measurement": "remaining activity", "value": "26%"}
{"SMILES": "Cc1cc(Nc2cc(N3CCN(C)CC3)nc(Sc3ccc(NC(=O)C4CC4)cc3)n2)[nH]n1", "target or system": "CAMK2G", "assay": "kinase activity, KinaseProfiler", "setting": "0.03 µM, species human", "scale": "relative to: control", "measurement": "remaining activity", "value": "109%"}
{"SMILES": "COc1cc(Nc2ncc3c(n2)-c2ccc(Cl)cc2C(c2c(F)cccc2OC)=NC3)ccc1C(=O)O", "target or system": "CAMK2A", "assay": "kinase activity", "setting": "1 µM", "measurement": "remaining activity", "value": "5%"}
{"SMILES": "C=CC(=O)N1CCC[C@@H](n2nc(-c3ccc(Oc4ccccc4)cc3)c3c(N)ncnc32)C1", "target or system": "DDR1", "assay": "kinase activity, inhibitor, HotSpot radiometric", "setting": "100 nM, together with: ATP 10 µM", "measurement": "remaining activity", "value": "70.9 ± 1.6%"}
{"SMILES": "COc1cc(-c2cncc3c2CN(C)Cc2cc(N4CCNCC4)ccc2-3)cc(OC)c1OC", "target or system": "CAMK2G", "assay": "kinase activity", "setting": "1 µM, human enzyme, together with: ATP 10 µM", "scale": "relative to: DMSO control", "measurement": "remaining activity", "value": "100%"}
{"SMILES": "Nc1ncc2c(n1)-c1c([nH]c3ccc(-c4ccc(F)cc4)cc13)CCC2", "target or system": "Serine/threonine-protein kinase PAK 5 (PAK5, Homo sapiens, UniProt Q9P286)", "assay": "kinase activity, inhibitor, radiometric", "setting": "1 µM, together with: ATP at Km", "measurement": "remaining activity", "value": "79%"}
